Results collected from several papers.
Compare with care: the assays were run in different laboratories. Numbers after ± are the reported error.
HCRTR1: Orexin/Hypocretin receptor type 1 (HCRTR1, Homo sapiens, UniProt O43613)
Sequence of UniProt O43613 (whole entry, looked up): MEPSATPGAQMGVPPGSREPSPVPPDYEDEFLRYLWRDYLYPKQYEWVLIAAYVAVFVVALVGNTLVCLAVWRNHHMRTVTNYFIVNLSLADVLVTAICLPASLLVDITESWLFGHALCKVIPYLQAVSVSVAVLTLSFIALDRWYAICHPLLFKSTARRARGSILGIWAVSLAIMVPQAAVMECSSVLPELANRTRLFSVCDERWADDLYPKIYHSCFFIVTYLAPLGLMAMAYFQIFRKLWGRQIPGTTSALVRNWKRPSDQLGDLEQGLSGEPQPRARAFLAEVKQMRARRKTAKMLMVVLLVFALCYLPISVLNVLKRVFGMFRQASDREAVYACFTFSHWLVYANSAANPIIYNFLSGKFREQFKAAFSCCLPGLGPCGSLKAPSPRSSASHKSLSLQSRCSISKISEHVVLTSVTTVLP
Drd3: D(3) dopamine receptor (Drd3, Rattus norvegicus, UniProt P19020)
Sequence of UniProt P19020 (whole entry, looked up): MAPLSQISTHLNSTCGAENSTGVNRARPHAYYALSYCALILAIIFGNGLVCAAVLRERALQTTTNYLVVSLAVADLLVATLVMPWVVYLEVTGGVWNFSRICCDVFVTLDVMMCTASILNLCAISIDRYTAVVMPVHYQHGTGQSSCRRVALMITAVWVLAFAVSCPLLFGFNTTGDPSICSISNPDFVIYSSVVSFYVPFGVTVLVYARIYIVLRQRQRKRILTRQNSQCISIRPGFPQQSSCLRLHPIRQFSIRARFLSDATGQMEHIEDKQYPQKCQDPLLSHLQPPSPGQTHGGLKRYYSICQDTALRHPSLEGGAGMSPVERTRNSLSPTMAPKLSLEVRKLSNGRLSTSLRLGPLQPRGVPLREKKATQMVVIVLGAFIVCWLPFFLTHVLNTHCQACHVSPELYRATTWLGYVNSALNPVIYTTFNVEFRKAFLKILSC
Sequence of UniProt P35367 (whole entry, looked up): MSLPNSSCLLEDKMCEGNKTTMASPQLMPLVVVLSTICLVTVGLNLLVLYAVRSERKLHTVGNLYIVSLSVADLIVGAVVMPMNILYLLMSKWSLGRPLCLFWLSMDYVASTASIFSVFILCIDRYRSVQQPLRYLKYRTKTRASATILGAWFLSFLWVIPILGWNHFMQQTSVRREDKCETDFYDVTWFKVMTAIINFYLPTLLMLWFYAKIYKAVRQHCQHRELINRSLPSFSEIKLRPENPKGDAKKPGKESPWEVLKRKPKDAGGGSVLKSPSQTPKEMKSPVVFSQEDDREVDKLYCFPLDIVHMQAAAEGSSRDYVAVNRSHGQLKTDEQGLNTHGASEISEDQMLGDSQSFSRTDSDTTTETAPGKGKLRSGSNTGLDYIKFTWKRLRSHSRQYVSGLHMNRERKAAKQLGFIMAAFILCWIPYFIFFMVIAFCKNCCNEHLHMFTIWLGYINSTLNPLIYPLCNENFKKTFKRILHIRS
Sequence of UniProt P47712 (whole entry, looked up): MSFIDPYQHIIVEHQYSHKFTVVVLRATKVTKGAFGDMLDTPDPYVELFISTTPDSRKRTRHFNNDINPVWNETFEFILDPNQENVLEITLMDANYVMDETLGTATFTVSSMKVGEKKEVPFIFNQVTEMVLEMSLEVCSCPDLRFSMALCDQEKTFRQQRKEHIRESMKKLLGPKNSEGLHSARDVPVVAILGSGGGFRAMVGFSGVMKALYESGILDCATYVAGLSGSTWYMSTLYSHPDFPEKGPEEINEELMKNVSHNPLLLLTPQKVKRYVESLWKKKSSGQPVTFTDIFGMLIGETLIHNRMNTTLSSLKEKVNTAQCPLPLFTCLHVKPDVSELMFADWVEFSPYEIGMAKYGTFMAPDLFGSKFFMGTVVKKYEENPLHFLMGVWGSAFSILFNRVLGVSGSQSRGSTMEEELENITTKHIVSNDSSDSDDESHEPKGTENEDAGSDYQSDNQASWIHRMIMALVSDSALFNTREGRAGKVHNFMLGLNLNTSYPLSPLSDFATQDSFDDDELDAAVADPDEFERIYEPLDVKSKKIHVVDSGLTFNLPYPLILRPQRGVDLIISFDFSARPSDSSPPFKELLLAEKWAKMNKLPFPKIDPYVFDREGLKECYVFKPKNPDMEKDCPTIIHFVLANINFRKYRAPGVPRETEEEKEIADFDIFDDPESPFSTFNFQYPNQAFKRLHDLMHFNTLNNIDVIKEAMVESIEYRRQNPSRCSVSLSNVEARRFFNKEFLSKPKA
Sequence of UniProt Q8NET8 (whole entry, looked up): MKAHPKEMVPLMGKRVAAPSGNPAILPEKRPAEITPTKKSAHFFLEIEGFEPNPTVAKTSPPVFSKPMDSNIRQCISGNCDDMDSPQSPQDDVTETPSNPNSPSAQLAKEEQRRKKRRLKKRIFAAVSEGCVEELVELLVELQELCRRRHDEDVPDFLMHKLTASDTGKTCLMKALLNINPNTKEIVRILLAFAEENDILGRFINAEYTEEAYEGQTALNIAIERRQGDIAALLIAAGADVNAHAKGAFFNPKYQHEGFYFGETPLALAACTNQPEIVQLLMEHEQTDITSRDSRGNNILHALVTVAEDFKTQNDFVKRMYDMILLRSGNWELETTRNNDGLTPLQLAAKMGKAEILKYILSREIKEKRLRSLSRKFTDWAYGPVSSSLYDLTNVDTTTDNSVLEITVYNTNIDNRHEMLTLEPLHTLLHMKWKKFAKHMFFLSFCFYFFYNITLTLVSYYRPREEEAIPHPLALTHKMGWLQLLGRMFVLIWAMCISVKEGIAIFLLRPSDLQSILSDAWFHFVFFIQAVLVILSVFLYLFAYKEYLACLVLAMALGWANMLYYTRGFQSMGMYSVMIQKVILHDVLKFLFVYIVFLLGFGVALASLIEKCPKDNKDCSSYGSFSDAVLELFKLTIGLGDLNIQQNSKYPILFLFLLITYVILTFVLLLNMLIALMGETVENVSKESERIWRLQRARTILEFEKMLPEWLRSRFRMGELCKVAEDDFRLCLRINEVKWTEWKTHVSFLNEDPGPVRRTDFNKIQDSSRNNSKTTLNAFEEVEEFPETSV
Sequence of UniProt O75469 (whole entry, looked up): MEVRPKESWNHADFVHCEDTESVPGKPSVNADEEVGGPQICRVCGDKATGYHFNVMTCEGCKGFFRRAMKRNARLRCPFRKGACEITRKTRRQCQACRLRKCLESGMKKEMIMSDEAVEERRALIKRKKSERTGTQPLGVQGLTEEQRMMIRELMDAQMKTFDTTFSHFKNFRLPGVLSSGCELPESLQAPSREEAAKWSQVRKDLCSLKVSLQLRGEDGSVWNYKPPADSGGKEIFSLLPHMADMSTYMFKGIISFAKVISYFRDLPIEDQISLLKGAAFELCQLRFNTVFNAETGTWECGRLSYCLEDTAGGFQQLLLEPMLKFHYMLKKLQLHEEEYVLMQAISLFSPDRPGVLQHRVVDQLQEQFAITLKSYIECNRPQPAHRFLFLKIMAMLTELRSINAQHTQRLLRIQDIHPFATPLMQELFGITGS

Structure (SMILES) | target | test | system | conditions | measurement | result
COc1ccc(CC2c3cc(OC)c(OC)cc3CCN2CC(=O)N2CCN(c3ccccc3)CC2)cc1OC (stereo not drawn) | HCRTR1 | – | – | – | Kd | > 10000 nM
Cc1ccc(C(C)C)cc1O | Transient receptor potential cation channel subfamily V member 3 (TRPV3, Homo sapiens, UniProt Q8NET8) | ion current, activator, whole-cell patch clamp | HEK293 transfected with TRPV3 | – | EC50 | 200000 nM
N=C(NCCCCCCCCCCCCN)NCCCc1c[nH]cn1 | Histamine H1 receptor (HRH1, Homo sapiens, UniProt P35367) | ligand displacement, radioligand | – | cell membranes | Ki | 195 nM
CCCCC1c2cc(OC)c(OC)cc2CCN1CC(=O)NCc1ccccc1 (stereo not drawn) | HCRTR1 | calcium signal, antagonist, fluorescence | – | – | Kb | > 10000 nM
CCCN(CCC1(O)CC(NS(=O)(=O)c2ccc(OC)cc2)C1)[C@H]1CCc2nc(N)sc2C1 (stereo in doubt) | dopamine D1-like receptor, rat | radioligand binding | rat striatal membranes | added: [3H]SCH23390 | Ki | 2610 ± 255 nM
COc1cc2c(cc1OC)C(CCCc1ccccc1)N(CC(=O)NCc1ccccc1)CC2 (stereo not drawn) | HCRTR1 | calcium signal, antagonist, fluorescence | – | – | Kb | > 10000 nM
O=C(/C=C/C=C/c1ccc2c(c1)OCO2)N1CCCCC1 | Nuclear receptor subfamily 1 group I member 2 (NR1I2, Homo sapiens, UniProt O75469) | MDR1 promoter reporter, activator, luciferase reporter | LS180, no PXR transfection | 24 h, 1% charcoal-stripped FBS | EC50 | 2070 nM
CCCN(CCC1(O)CC(NC(=O)c2ccccc2F)C1)[C@H]1CCc2nc(N)sc2C1 (stereo in doubt) | dopamine D1-like receptor, rat | radioligand binding | rat striatal membranes | added: [3H]SCH23390 | Ki | 53600 ± 8380 nM
CCCCCCOc1ccc(CCCCC(=O)C(=O)NCCCC(=O)O)cc1 | Cytosolic phospholipase A2 (PLA2G4A, Homo sapiens, UniProt P47712) | enzyme activity, mixed micelle | – | – | XI(50) | 0.016 mole fraction
CCCN(CCC1(O)CC(NS(=O)(=O)c2ccc(Cl)cc2)C1)[C@H]1CCc2nc(N)sc2C1 (stereo in doubt) | Drd3 | ligand displacement, radioligand | – | cell membranes | Ki | 2.6 nM
CCCC(=O)Nc1cc(CC2c3cc(OC)c(OC)cc3CCN2CC(=O)NCc2ccccc2)ccc1OC (stereo not drawn) | HCRTR1 | calcium signal, antagonist, fluorescence | – | – | Kb | 320 nM
COc1ccc(CC2c3cc(OCCC(C)C)c(OC)cc3CCN2CC(=O)NCc2ccccc2)cc1OC (stereo not drawn) | HCRTR1 | – | – | – | Kd | 326 ± 46 nM
COc1cc2c(cc1OC)C(Cc1ccc(N)cc1)N(CC(=O)NCc1ccccc1)CC2 (stereo not drawn) | HCRTR1 | calcium signal, antagonist, fluorescence | – | – | Kb | > 10000 nM
CCCN(CCC1(O)CC(NS(=O)(=O)c2cccc(F)c2)C1)[C@H]1CCc2nc(N)sc2C1 (stereo in doubt) | Drd3 | ligand displacement, radioligand | – | cell membranes | Ki | 1.2 nM
COc1cc(CC2c3cc(OC)c(OC)cc3CCN2CC(=O)NCc2ccccc2)ccc1O (stereo not drawn) | HCRTR1 | calcium signal, antagonist, fluorescence | – | – | Kb | 419 nM
CCCN(CC[C@]1(O)C[C@H](NS(=O)(=O)c2ccccc2OC)C1)[C@H]1CCc2nc(N)sc2C1 (relative stereo) | dopamine D1-like receptor, rat | radioligand binding | rat striatal membranes | added: [3H]SCH23390 | Ki | 1810 ± 93 nM
CCCC(=O)Oc1ccc(CC2c3cc(OC)c(OC)cc3CCN2CC(=O)NCc2ccccc2)cc1OC (stereo not drawn) | HCRTR1 | calcium signal, antagonist, fluorescence | – | – | Kb | 43.5 nM
CCCN(CC[C@]1(O)C[C@@H](NC(=O)c2cccc(F)c2)C1)[C@H]1CCc2nc(N)sc2C1 (relative stereo) | dopamine D1-like receptor, rat | radioligand binding | rat striatal membranes | added: [3H]SCH23390 | Ki | 56600 ± 2730 nM
